Results collected from several papers.
Each line is one published result; not all experiments were run side by side. “And” joins repeats or separate records; there may be more than shown. Numbers after ± are the reported error.
blaNDM-1: Metallo-beta-lactamase type 2 (blaNDM-1, Klebsiella pneumoniae, UniProt C7C422)
Sequence of UniProt Q06203 (whole entry, looked up): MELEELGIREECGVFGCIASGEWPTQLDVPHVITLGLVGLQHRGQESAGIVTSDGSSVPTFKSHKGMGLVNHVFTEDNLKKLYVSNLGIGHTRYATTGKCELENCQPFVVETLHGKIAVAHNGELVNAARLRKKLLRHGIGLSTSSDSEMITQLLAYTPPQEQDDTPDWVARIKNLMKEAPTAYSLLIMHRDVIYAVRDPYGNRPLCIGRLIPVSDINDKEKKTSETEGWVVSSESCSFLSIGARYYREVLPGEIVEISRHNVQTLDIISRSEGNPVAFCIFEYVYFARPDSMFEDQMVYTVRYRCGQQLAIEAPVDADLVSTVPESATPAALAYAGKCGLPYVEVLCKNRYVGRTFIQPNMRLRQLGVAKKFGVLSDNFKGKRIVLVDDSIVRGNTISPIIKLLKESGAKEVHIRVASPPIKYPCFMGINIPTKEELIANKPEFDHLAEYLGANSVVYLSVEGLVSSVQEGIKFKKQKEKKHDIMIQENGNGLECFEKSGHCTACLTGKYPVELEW
Sequence of UniProt P26718 (whole entry, looked up): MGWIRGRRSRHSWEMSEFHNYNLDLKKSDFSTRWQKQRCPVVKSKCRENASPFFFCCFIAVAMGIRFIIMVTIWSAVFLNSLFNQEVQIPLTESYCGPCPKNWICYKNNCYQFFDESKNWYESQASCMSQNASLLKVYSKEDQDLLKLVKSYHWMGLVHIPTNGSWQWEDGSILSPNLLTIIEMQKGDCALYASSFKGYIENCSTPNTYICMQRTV
Sequence of UniProt O15294 (whole entry, looked up): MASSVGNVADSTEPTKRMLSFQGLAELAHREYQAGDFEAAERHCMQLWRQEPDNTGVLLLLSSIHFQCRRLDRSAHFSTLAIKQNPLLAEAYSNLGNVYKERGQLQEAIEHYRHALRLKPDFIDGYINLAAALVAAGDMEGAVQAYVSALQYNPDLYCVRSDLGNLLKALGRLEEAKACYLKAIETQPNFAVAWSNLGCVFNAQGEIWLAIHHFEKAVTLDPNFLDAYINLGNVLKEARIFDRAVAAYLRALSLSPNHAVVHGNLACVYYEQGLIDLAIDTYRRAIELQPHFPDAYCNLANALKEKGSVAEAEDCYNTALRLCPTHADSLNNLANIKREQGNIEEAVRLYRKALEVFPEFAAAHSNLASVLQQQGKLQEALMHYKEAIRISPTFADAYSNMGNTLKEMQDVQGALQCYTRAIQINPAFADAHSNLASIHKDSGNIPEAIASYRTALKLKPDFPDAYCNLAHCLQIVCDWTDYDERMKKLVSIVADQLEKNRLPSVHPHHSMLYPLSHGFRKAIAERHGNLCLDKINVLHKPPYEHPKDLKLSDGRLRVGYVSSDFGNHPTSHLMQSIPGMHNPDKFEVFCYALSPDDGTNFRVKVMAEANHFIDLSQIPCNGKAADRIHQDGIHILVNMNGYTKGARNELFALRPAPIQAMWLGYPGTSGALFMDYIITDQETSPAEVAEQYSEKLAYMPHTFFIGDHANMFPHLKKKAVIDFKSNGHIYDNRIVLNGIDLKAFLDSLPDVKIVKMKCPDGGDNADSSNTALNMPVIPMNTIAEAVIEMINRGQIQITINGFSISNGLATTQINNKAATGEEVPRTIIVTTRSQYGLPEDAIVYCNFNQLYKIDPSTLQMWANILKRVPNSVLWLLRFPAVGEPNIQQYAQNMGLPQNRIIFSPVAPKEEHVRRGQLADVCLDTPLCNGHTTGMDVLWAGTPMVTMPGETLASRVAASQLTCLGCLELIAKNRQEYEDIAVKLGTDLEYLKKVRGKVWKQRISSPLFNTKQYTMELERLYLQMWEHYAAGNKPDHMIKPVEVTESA
Sequence of UniProt P37136 (whole entry, looked up): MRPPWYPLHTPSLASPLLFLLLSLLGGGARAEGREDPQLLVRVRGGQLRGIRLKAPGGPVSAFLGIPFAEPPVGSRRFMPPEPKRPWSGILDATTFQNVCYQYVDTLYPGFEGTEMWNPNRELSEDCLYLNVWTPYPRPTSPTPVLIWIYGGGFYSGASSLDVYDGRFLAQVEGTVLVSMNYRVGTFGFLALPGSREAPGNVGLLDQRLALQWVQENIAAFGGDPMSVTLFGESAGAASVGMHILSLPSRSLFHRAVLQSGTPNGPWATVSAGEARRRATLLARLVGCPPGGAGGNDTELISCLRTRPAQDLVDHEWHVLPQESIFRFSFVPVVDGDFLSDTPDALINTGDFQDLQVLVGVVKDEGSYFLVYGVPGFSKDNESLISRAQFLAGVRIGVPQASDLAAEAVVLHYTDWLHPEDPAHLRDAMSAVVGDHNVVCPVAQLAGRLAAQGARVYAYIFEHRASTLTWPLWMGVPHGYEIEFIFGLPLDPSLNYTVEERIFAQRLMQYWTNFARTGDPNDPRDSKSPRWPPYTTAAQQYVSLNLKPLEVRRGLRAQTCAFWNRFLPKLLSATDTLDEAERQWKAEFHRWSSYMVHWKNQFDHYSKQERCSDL
Sequence of UniProt Q7Z418 (whole entry, looked up): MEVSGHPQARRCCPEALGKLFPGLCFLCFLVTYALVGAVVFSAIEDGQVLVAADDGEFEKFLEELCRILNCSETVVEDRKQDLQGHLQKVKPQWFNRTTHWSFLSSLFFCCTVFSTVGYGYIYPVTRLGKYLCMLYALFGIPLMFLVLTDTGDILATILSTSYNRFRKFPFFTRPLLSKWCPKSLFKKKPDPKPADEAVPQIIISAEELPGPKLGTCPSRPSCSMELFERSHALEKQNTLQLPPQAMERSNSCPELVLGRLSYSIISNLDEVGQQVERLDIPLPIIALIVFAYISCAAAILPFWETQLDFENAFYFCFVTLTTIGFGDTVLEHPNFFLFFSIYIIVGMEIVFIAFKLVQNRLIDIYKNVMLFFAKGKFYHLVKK
Sequence of UniProt P63104 (whole entry, looked up): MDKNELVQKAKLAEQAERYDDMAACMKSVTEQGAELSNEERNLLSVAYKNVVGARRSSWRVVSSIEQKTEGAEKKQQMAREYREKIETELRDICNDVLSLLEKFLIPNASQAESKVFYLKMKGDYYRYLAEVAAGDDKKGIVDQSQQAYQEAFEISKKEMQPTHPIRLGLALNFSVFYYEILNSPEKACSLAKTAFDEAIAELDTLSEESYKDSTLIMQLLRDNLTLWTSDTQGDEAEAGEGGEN
Sequence of UniProt P30101 (whole entry, looked up): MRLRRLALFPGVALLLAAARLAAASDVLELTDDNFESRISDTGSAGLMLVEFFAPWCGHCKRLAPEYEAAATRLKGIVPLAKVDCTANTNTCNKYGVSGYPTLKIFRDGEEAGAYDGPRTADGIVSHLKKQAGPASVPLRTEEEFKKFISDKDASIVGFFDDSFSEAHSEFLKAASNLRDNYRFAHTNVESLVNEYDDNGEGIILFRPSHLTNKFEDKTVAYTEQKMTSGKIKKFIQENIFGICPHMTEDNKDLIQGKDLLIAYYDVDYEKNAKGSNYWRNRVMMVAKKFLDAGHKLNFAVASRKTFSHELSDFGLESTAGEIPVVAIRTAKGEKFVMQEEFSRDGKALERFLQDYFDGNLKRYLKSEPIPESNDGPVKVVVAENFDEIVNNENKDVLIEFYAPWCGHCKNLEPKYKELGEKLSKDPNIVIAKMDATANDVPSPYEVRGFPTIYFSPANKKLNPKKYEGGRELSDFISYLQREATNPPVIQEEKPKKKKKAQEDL
Sequence of UniProt P28074 (whole entry, looked up): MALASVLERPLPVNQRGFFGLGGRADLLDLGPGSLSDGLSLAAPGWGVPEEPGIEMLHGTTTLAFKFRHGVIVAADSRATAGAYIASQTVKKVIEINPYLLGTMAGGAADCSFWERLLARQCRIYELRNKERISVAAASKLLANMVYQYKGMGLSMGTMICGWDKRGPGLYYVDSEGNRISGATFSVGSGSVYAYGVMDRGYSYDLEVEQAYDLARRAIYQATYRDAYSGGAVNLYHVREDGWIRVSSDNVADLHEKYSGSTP
Sequence of UniProt P30969 (whole entry, looked up): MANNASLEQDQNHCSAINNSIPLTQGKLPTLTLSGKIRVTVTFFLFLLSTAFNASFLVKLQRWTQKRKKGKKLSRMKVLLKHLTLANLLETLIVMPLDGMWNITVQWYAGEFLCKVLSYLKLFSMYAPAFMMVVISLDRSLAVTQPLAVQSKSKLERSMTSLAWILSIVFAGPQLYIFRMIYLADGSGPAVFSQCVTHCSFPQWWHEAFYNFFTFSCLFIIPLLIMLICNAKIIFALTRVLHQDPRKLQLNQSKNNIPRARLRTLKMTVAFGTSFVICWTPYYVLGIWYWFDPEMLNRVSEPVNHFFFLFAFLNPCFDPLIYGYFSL
Sequence of UniProt P40261 (whole entry, looked up): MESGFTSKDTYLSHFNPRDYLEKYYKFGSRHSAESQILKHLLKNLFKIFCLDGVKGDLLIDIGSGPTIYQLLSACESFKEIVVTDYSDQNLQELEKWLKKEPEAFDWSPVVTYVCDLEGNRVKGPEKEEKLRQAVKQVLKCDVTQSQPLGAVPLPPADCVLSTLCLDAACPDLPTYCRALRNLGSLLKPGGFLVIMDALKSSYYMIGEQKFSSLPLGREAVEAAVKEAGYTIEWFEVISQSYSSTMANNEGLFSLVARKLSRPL
Sequence of UniProt P42575 (whole entry, looked up): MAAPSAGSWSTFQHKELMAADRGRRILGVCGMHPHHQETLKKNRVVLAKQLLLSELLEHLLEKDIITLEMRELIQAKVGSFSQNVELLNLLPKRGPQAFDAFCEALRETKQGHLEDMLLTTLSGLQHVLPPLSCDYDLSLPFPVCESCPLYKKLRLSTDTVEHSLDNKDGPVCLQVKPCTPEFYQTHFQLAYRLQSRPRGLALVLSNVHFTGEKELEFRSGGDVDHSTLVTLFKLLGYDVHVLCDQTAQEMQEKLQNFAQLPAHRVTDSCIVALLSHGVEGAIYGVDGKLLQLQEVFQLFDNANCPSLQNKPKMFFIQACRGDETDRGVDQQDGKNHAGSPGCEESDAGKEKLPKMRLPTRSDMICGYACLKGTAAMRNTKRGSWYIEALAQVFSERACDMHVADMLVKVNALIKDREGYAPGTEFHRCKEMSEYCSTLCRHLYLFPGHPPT

SMILES | target | assay | system | conditions | IC50
CN(C)C(=O)[C@H](NC(=O)c1ccccc1-c1ccc(C(F)(F)F)cc1)c1cccc(C(F)(F)F)c1 | NKG2-D type II integral membrane protein, with MICA (KLRK1, Homo sapiens, UniProt P26718) | – | – | – | > 20 µM
O=C(CCS)Nc1ccccc1-c1nn[nH]n1 | blaNDM-1 | enzyme activity, inhibitor, fluorescence | – | with preincubation | 3.16 µM
CC[C@H](C)[C@H](NC(=O)[C@H](CCC(=O)O)NC(=O)[C@H](CO)NC(=O)[C@@H](NC(=O)[C@@H](N)CO)C(C)C)C(=O)N[C@@H](CCC(N)=O)C(=O)N[C@@H](CC(C)C)C(=O)N[C@@H](CCSC)C(=O)N[C@@H](C)C(=O)N[C@@H](CC(N)=O)C(=O)N[C@@H](CC(C)C)C(=O)NCC(=O)N[C@@H](CCCCN)C(=O)N[C@@H](Cc1c[nH]cn1)C(=O)N[C@@H](CC(C)C)C(=O)N[C@@H](CC(N)=O)C(=O)N[C@@H](CO)C(=O)N[C@@H](CCSC)C(=O)N[C@@H](CCC(=O)O)C(=O)N[C@@H](CCCNC(=N)N)C(=O)N[C@H](C(=O)N[C@@H](CCC(=O)O)C(=O)N[C@@H](Cc1c[nH]c2ccccc12)C(=O)N[C@@H](CC(C)C)C(=O)N[C@@H](CCCNC(=N)N)C(=O)N[C@@H](CCCCN)C(=O)N[C@@H](CCCCN)C(=O)N[C@@H](CC(C)C)C(=O)N[C@@H](CCC(N)=O)C(=O)N[C@@H](CC(=O)O)C(=O)N[C@H](C(=O)N[C@@H](Cc1c[nH]cn1)C(=O)N[C@@H](CC(N)=O)C(=O)N[C@@H](Cc1ccccc1)C(N)=O)C(C)C)C(C)C | PTH1R (Homo sapiens, UniProt Q03431) | ligand displacement, radioligand | – | cell membranes | 0.0137 µM
CC[N+](CC)(CC)CC | Potassium channel protein kcv, two L70A, two L70Y (A250R, Paramecium bursaria Chlorella virus 1, UniProt Q84568, L70A/L70Y) | – | – | – | 5900 ± 400 µM
COC(=O)C[C@H](NC(=O)[C@H](C)NC(=O)[C@@H](NC(=O)[C@H](CC(=O)OC)NC(=O)[C@@H](NC(=O)c1ccc2ccccc2n1)C(C)C)C(C)C)C(=O)COc1c(F)cccc1F | Caspase-2 (Homo sapiens, UniProt P42575) | enzyme activity, inhibitor, absorbance | – | – | 0.48 µM
COC(=O)C1CN1S(=O)(=O)c1cccc(C(F)(F)F)c1 (centres unmarked) | PDIA3 (Homo sapiens, UniProt P30101) | enzyme activity, inhibitor, absorbance | – | pH 7.6 | 200 µM
NCCCC[C@@H](NC(=O)[C@H](Cc1c[nH]cn1)NC(=O)[C@H](CO)NC(=O)[C@H](Cc1c[nH]c2ccccc12)NC(=O)[C@H](Cc1c[nH]cn1)NC(=O)[C@@H]1CCC(=O)N1)C(=O)N[C@@H](Cc1c[nH]c2ccccc12)C(=O)N[C@@H](Cc1ccc(O)cc1)C(=O)N1CCC[C@H]1C(=O)NCC(N)=O | Gonadotropin-releasing hormone receptor (Rattus norvegicus, UniProt P30969) | ligand displacement in cells, radioligand | – | – | 0.0008 µM
Cc1cc(Oc2nc(N3CC[C@@H](c4ccncc4)C3)ncc2F)[nH]n1 | PPAT (Homo sapiens, UniProt Q06203) | enzyme activity, inhibitor | – | – | > 14 µM and 14 µM
CC(C)C[C@H](NC(=O)[C@H](C)NC(=O)[C@H](Cc1ccc(O)cc1)NC(=O)[C@H](CC(N)=O)NC(=O)[C@H](CCC(=O)O)NC(=O)[C@H](CC(=O)O)NC(=O)[C@H](CC(N)=O)NC(=O)[C@H](C)NC(=O)[C@H](C)N)C(=O)N[C@@H](C)C(=O)N[C@@H](C)C(=O)O | RING finger and CHY zinc finger domain-containing protein 1 (RCHY1, Homo sapiens, UniProt Q96PM5) | binding | – | – | ~0.47 µM
CNC(=O)C(NC(=O)c1ccccc1-c1ccc(C(F)(F)F)cc1)c1cccc(C(F)(F)F)c1 (centres unmarked) | NKG2-D type II integral membrane protein, with ULBP6 (KLRK1, Homo sapiens, UniProt P26718) | ligand binding, inhibitor, TR-FRET | HEK293 expressing NKG2D and DAP10 | together with: ULBP6-AF647 | > 20 µM
C=C(NC(=O)C(=C)NC(=O)c1csc(C2=NC3c4csc(n4)C4NC(=O)c5csc(n5)C(C(C)(O)C(C)O)NC(=O)C5CSC(=N5)C(=CC)NC(=O)C(C(C)O)NC(=O)c5csc(n5)C3(CC2)NC(=O)C(C)NC(=O)C(=C)NC(=O)C(C(C)C)NC2C=Cc3c(C(C)O)cc(nc3C2O)C(=O)OC4C)n1)C(N)=O (centres unmarked) | PSMB5 (Homo sapiens, UniProt P28074) | chymotrypsin-like activity, inhibitor | purified human 20S proteasome | 37 °C, 15 min preincubation, together with: Suc-Leu-Leu-Val-Tyr-AMC | 3.9 ± 0.2 µM
COCc1c(C(=O)O)nnn1Cc1c(F)cccc1Cl | Metallo-beta-lactamase type 2 (Serratia marcescens, UniProt P52699) | inhibitor | – | 10 min preincubation, together with: FC5 fluorogenic substrate | 2.37 µM
O=c1oc2cc(O)c(O)cc2c2oc3cc4c(cc3c12)OCO4 | Genome polyprotein, NS5B polymerase (Hepatitis C virus genotype 1b, UniProt P26663) | NS5B RNA polymerase activity, inhibitor | hepatitis C virus, genotype 1b | together with: poly(rA)/U12 | 63.8 µM
CC(C)C[C@H](NC(=O)[C@H](C)NC(=O)[C@H](CO)NC(=O)[C@H](CC(=O)O)NC(=O)[C@@H](N)CCC(=O)O)C(=O)N[C@@H](CC(C)C)C(=O)N[C@@H](CCC(=O)O)C(=O)N[C@@H](CC(=O)O)C(=O)N1CCC[C@H]1C(=O)N[C@@H](C)C(=O)NCC(=O)N[C@H](C(=O)O)[C@@H](C)O | HLA-DRA/HLA-DRB3 (Homo sapiens, UniProt P01903+P79483) | binding, competition binding | purified HLA-DR | 48 h, together with: radiolabelled probe peptide 0.1-1 nM | > 5 µM
CC(=O)N[C@@H](CCCNC(=N)N)C(=O)N[C@H](C(=O)N1CCC[C@H]1C(=O)N[C@@H](COP(=O)(O)O)C(=O)N[C@@H](CC(C)C)C(=O)N1CCC[C@H]1C(=O)N[C@H](C(=O)N1CCC[C@H]1C(c1ccccc1)c1ccccc1)C(C)C)[C@@H](C)O | YWHAZ (Homo sapiens, UniProt P63104) | peptide binding, inhibitor, competitive fluorescence polarization | – | 10 µM protein, together with: 100 nM FAM-labelled diphosphorylated Tau peptide | 6.2 µM
CC[C@H](C)[C@@H]1NC(=O)[C@H](CC(C)C)NC(=O)[C@H](C(C)C)NC(=O)[C@H](CC(C)C)NC(=O)[C@H](CCCCN)NC(=O)[C@H](CC(N)=O)NC(=O)[C@H](Cc2ccccc2)NC(=O)[C@H](Cc2ccccc2)NC(=O)[C@H](CCCNC(=N)N)NC(=O)[C@H](Cc2ccccc2)NC(=O)[C@H](C(C)C)NC(=O)[C@H](Cc2ccc(O)cc2)NC(=O)[C@H]([C@@H](C)CC)NC(=O)[C@H]([C@@H](C)O)NC(=O)[C@@H](Cc2ccc(O)cc2)NC(=O)CSC[C@@H](C(=O)NCC(N)=O)NC(=O)[C@H](CC(N)=O)NC1=O | NNMT (Homo sapiens, UniProt P40261) | enzyme activity, inhibitor, mass spectrometry | – | – | 1.13 µM
CCCCC[N+](CCCCC)(CCCCC)CCCCC | KCNK18 (Homo sapiens, UniProt Q7Z418) | ion current, inhibitor, patch clamp | – | – | 0.3 µM
CC12CC(c3ccoc3)OC(=O)C1(O)CCC1(C)C2C2OC(=O)C1(O)C1OC21 (centres unmarked) | Ache (Rattus norvegicus, UniProt P37136) | enzyme activity, inhibitor, Ellman | – | – | 120 µM
CCn1nnc(-c2ccccc2NC(=O)[C@H](C)CS)n1 | blaNDM-1 | enzyme activity, inhibitor, fluorescence | – | with preincubation | 1.84 µM
C[C@H]1NC(=O)C[C@@H](C(=O)O)NC(=O)C[C@@H](C(=O)O)NC(=O)[C@H](Cc2ccccc2)N(C)C(=O)[C@H](CCCNC(=N)N)NC1=O | Endochitinase B1 (Aspergillus fumigatus, UniProt Q873X9) | enzyme activity, inhibitor, fluorometric | – | 10 min, pH 5.5, 37 °C, together with: 20 µM 4-MU-chitobiose | > 1000 µM
NC[C@@H](CC[C@H](N)C(=O)O)C[C@H]1O[C@@H](n2cnc3c(N)ncnc32)[C@H](O)[C@@H]1O | Actin-histidine N-methyltransferase (SETD3, Homo sapiens, UniProt Q86TU7) | enzyme activity, inhibitor, radiometric | – | – | 3.4 µM
NC[C@@H]1O[C@H](O[C@H]2[C@@H](O)[C@H](O[C@@H]3[C@@H](O)[C@H](N)C[C@H](N)[C@H]3O[C@H]3O[C@H](CN)[C@@H](O)[C@H](O)[C@H]3N)O[C@@H]2Cn2cc(-c3ccc(-c4cn(C[C@H]5O[C@@H](O[C@@H]6[C@@H](O)[C@H](N)C[C@H](N)[C@H]6O[C@H]6O[C@H](CN)[C@@H](O)[C@H](O)[C@H]6N)[C@H](O)[C@@H]5O[C@H]5O[C@@H](CN)[C@@H](O)[C@H](O)[C@H]5N)nn4)cc3)nn2)[C@H](N)[C@@H](O)[C@@H]1O | HIV-1 TAR RNA | Tat peptide binding, FRET competition | – | pH 7.4, 25 °C | 0.056 ± 0.006 µM
CN[C@@H](C)C(=O)N[C@H](C(=O)N1C[C@@H](NC(=O)COCCOCCOCCOCc2cn(CCNC(=O)CN(Cc3cccs3)C(=O)[C@H](NS(=O)(=O)c3cc4ccc(O)nc4cc3Cl)c3ccccc3OC)nn2)C[C@H]1C(=O)N[C@@H]1CCCc2ccccc21)C1CCCCC1 | OGT (Homo sapiens, UniProt O15294) | enzyme activity, inhibitor, fluorescence | – | – | 1.92 µM

Some of these lines once more:
SMILES | target | assay | system | conditions | IC50
O=C(CCS)Nc1ccccc1-c1nn[nH]n1 | blaNDM-1 | enzyme activity, inhibitor, fluorescence | – | with preincubation | 3.16 µM
